Measured values pooled from the literature.
Parts stem from different laboratories: compare values within a part only. Substitutions count along the parent as printed.

Set 1
Target: ABI1, truncated, D143A, DHFR fusion (Arabidopsis thaliana)
Method: DHFR PCA, deep sequencing
Medium: yeast
Notes: methotrexate growth selection, single substitutions
Added: (+)-ABA 17 µM
Relative to: wild-type fitted maximum
Reading: higher = stronger binding
Parent: PYL1, truncated, DHFR fusion (Arabidopsis thaliana); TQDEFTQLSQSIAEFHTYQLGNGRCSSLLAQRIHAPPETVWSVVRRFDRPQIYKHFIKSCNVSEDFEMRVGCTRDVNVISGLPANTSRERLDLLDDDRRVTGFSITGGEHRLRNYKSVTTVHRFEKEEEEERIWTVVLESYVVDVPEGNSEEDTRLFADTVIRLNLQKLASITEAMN; partner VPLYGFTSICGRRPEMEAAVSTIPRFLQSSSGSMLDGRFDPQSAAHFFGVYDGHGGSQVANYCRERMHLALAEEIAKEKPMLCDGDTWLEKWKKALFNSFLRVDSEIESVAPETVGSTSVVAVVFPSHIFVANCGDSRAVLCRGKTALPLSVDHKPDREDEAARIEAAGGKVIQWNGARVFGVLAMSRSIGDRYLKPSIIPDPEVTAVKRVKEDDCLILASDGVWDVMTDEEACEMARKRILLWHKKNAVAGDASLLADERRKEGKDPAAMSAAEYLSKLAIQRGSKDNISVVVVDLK
`G108V` — result for “relative binding score”: -0.486%.
`H55N` — result for “relative binding score”: 84.8%.
`S11R` — result for “relative binding score”: 58.3%.
Under “relative binding score”, `Q10R` is recorded as 78.2%.
`N61G`: “relative binding score” 64.1%.
Under “relative binding score”, `P50L` is recorded as -4.91%.
Under “relative binding score”, `F103L` is recorded as 8.11%.
Under “relative binding score”, `D48K` is recorded as -2.87%.
For `E127I`, “relative binding score” read 78.3%.
For `T119K`, “relative binding score” read 9.58%.
Under “relative binding score”, `C25M` is recorded as 52.5%.
`K54A`: “relative binding score” -8.03%.
Under “relative binding score”, `S104Y` is recorded as 7.32%.
Under “relative binding score”, `D92G` is recorded as 1.37%.
`S140E`: “relative binding score” 4.02%.
Under “relative binding score”, `N177H` is recorded as 81.5%.

Set 2
Target: Histone acetyltransferase KAT6A, winged helix 2, GST fusion (KAT6A, Homo sapiens, UniProt Q92794, residues 85-181)
Method: protein binding microarray
Form: double-stranded DNA, one strand shown
Medium: in vitro
Concentration: not given
Notes: 8-mer, flanks averaged, mean of 2 arrays, mostly near background
Relative to: not given
Reading: higher = stronger binding
Target sequence (chain): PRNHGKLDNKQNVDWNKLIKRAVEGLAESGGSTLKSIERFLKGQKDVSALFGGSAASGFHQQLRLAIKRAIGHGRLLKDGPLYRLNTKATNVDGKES
The E-score of `CGTTAAAG` is reported as -0.0331.
The E-score of `GGACTCCA` is reported as -0.0785.
With `ACTATTCC` the E-score was 0.128.
`CAATCTGA` has an E-score of 0.0356.
With `GAGCCAGC` the E-score was 0.0675.
The E-score of `CGTACGTC` is reported as -0.272.
`CTAAAATA` gave an E-score of -0.0744.
`CATTTCGC` has an E-score of -0.148.
For `ACTCTGTC`, the E-score was 0.0322.
The E-score of `CGACCGTA` is reported as -0.212.
`AGAGATGG` gave an E-score of -0.135.
With `ATTATCAA` the E-score was 0.0983.
`GTATCTCA` gave an E-score of -0.0341.
`CGCGTGGC` gave an E-score of 0.175.
For `AAACTCCT`, the E-score was -0.113.
The E-score of `TCGGAGCA` is reported as 0.0484.
`CTCTACTC` gave an E-score of 0.0101.
The E-score of `ACTAGAGG` is reported as -0.0555.
`AAGCACAC` gave an E-score of -0.0761.
`CCGGAATC` has an E-score of 0.012.
`ACTCCGCC` gave an E-score of 0.0734.
The E-score of `AAAGGCTT` is reported as -0.17.
With `AAGGAGCT` the E-score was -0.189.
`CTCCCGAC` gave an E-score of 0.0755.

Set 3
Target: RNA binding protein fox-1 homolog 2, RRM domain, GST-SBP tag (RBFOX2, Homo sapiens, UniProt O43251-10, residues 100-194)
Method: RNA Bind-n-Seq
Form: RNA
Medium: in vitro
Concentration: 365 nM
Notes: natural RNA segment, single round, ends assumed
Relative to: no-protein control
Reading: higher = stronger binding
Construct (chain): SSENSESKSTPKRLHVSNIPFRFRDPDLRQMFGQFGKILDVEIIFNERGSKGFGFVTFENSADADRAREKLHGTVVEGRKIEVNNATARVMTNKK
Under “RBNS enrichment (R)”, `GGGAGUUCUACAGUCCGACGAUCCUGUGACGAGGAACUGCCAUUGCAGGGUCAAUCACCAGGCACUUGCACAUGUAGAAACCUGUAGACUUUGGUUACUGCUAUAUUCCCCUUGAGAUCCUUGCUGGAUGCCGUGGAAUUCUCGGGUGCCAA` is recorded as 0.689.
For `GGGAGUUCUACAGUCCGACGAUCGCCGCUUCGUAUUCCUGGAAGAAGGAAGGCAUAGGCUUCGGUUUUCCCCUCGGAAACUGCUUCUGCUGGAGGAUAUGUGUUGGAAUAAUUACGUCUUGAGUCUGGGAUUAUGGAAUUCUCGGGUGCCAA`, “RBNS enrichment (R)” read 0.279.
Under “RBNS enrichment (R)”, `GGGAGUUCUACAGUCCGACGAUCAUGUUCCUGUCACAGCUGUCGACUACCCCACGCUGCAGGAAAUCCAUUCAGAAAUGAGCUAACAGUCUCCAGUGUAGCAGGAGAGCCAGUCACUUCCCUCCCCAGGCCCCUGGAAUUCUCGGGUGCCAA` is recorded as 0.341.
`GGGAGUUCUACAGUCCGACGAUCGAAUAUAGAUGUACAAAUCAGUUUGAGCUCUCCUUACAUACUUUGUGUCAGUAUGCAGGACUGCUAUGUACUCGGCAACCAUCCACUGUAGUCACAGCUUCUACUUGCAUUGGAAUUCUCGGGUGCCAA`: “RBNS enrichment (R)” 1.06.
`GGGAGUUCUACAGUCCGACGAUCUUCCCCCGUUGUUUACAUGUUGAAAAGGAAAAUCACAAUCACUUGUAAAUGUGCCAUGCUCUGGUGGUGUGGGCAGUCAAUUAUUGUUAGAAUCUUUACCAAAGAUCUGGUGGAAUUCUCGGGUGCCAA` — result for “RBNS enrichment (R)”: 0.425.
For `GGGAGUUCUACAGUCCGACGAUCUUACUAUGCUAUCAAUUCCAUAUAUGGAAAGGUGUUUUCCCUUUCAGAGCUCUUUAAAGCUCUGCAGAAGAUUUACAUGUGUUUAUAGAGCUAAGAGAAAUCAGGGCAUGUGGAAUUCUCGGGUGCCAA`, “RBNS enrichment (R)” read 0.937.
`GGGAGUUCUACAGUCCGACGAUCCUGAGGUGGUUGUGACCUGGAUCUUGAAGACUAAAAGACACAGAGUCUGCUGAGCUGCUCCUGUGCAUGGUGGCUGUCUCUUCAUCUAGGGCAGAAAUCUAUAGAUUCUUUGGAAUUCUCGGGUGCCAA`: “RBNS enrichment (R)” 3.84.
`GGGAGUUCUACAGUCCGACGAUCUUCUCAUCUGUGUUCCAGUAUCUACGGGAGGAGGAGCCCUUCUGACUGCGCCCUGAGGACGUGGACGCUGUUAGGAACCAAACUCUGUCCUGAGCUUCCUCUAGCUCACUUGGAAUUCUCGGGUGCCAA`: “RBNS enrichment (R)” 0.249.
`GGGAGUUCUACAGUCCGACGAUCACAUAUGUGCAGAAGGUUACUACCUAGGGUUUAUGCUUAAUUUUAAUUGGAGGAAAUGAAUGCUGAUUGUAACGGAGUUAAUUUUAUUGAUAAUAAAUUAUACACUAUGAUGGAAUUCUCGGGUGCCAA`: “RBNS enrichment (R)” 2.64.
Under “RBNS enrichment (R)”, `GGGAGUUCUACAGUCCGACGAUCUACCAGUGGACUGUUAGAAAGUAUUUCAGAUACGAGCAUCUUACAGGGCAUUCCAUCCCUAGUUCUCACAGUGAACACCUGCCUCCUCUCUCUCCUGAGAGCAAGCAUUUUGGAAUUCUCGGGUGCCAA` is recorded as 0.368.
`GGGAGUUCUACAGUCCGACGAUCUGGCUGAGUGUGGAUGACUUUUAUUUUAGGAGAAGGGCGAUUAACACUUUUGACAGUAUUUUGUUUUGCCCUGAUUUGGGGGAUUGUUUUGUUUUGGUGGUUGUUUUGGAUGGAAUUCUCGGGUGCCAA` — result for “RBNS enrichment (R)”: 6.84.
`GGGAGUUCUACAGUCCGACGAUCAAUGCAUAACUCAUUGUUGUCCUAGAUAUUUUGAUAUUUACCUUUAUGUUGAAUGCUAUUAAAUGUUUUCCUGUGUCAAAGUAAAAUAUUGUUAAUAAACCUAACAAUGAUGGAAUUCUCGGGUGCCAA` — result for “RBNS enrichment (R)”: 1.63.

Set 4
Target: Fragile X messenger ribonucleoprotein 1, C-terminal low-complexity region (Fmr1, Mus musculus, UniProt P35922)
Method: RNA Bind-n-Seq
Form: RNA
Medium: in vitro
Concentration: 200 nM
Notes: whole 134-nt RNA, ends assumed
Added: 150 mM KCl
Relative to: input library
Reading: higher = stronger binding
`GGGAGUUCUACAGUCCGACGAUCCAAGUCCUGUGCUACACAUCGUAUGUACCGAAUCGGUUUUUGGUUUGGUUUUUGGAAAGUAUUAUGUUACGCCGUUCGGAUCUGCACUUCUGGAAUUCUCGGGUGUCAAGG` gave a log2 enrichment of -0.718.
`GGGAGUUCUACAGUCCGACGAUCACCAUGCAGGUGGGCAUCUUUGGGAAGUGCGGCAAGGGGGGGAUAGGGAGGGGGGUAACACUUUGGGAACAGGUGGUCCCAGGUCGUUUCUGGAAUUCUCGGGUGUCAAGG` gave a log2 enrichment of 1.03.
The log2 enrichment of `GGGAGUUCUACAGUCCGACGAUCUUCGUUUUUUUCCUUAGUCUGAAGUUGCAGCCGGAGUGAAGAAGAGCGGACCGCUGCCCAGUGCUGAGGUAGAGUGUCGGAUCUGUUUUCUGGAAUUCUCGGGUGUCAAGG` is reported as -1.61.
For `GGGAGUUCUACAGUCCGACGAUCAAGUCCUGUGCUACACAUCGUAUGUACCGAAUCGGUUUUUUUGGAAAGGAAAAAGGAAAGUAUUAUGUUACGCCGUUCGGAUCUGCACUUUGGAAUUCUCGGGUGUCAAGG`, the log2 enrichment was -1.03.
`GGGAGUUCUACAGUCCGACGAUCAAGUCCUGUGCUACACAUCGUAUGUACCGAAUCGGUUUUUUUGGUUUGGAAAAAGGAAAGUAUUAUGUUACGCCGUUCGGAUCUGCACUUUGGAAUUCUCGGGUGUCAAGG` gave a log2 enrichment of -1.15.
With `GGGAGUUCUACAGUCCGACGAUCGCCCAUGCUAAAGUAAGAUUGUCUAACAAAGUUGAAGCCAUUGAUGUGGAAGAGGCCAAACGCCUCCAUCGGGAAGCUCUGAAGCAGUCUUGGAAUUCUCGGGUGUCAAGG` the log2 enrichment was -0.842.
`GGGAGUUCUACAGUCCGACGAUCGCAGGAAGUAAAAACAAAUGGAAAUGCUUCGGAUAGUGGCAGGGGUGGGGGUUGCUAAGGAAAGGGUGGGAUGGGAGAGGGUAAAGAGUUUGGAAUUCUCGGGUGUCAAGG` has a log2 enrichment of 0.492.
`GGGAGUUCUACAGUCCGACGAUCAGUCCUGUGCUACACAUCGUAUGUACCGAAUCGGUUUUUGGAAAAAAAGGUUUUUGGAAAGUAUUAUGUUACGCCGUUCGGAUCUGCACUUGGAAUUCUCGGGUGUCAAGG` has a log2 enrichment of -1.41.
For `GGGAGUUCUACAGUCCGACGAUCCAAGUCCUGUGCUACACAUCGUAUGUACCGAAUCGGGUUUUUGGGAGGGAAAGGGAAAGUAUUAUGUUACGCCGUUCGGAUCUGCACUUCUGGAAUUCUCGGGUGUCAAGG`, the log2 enrichment was 0.821.
`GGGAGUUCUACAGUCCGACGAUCCCUGUGCUACACAUCGUAUGUACCGAAUCGGUUUUUUUGGGGUUUUUUUGGGUUUUUUUGGAAAGUAUUAUGUUACGCCGUUCGGAUCUGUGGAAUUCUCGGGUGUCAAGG` has a log2 enrichment of -0.566.

For quick reference, copied from above (set 3):
`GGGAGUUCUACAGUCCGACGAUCGAAUAUAGAUGUACAAAUCAGUUUGAGCUCUCCUUACAUACUUUGUGUCAGUAUGCAGGACUGCUAUGUACUCGGCAACCAUCCACUGUAGUCACAGCUUCUACUUGCAUUGGAAUUCUCGGGUGCCAA`: “RBNS enrichment (R)” 1.06.
`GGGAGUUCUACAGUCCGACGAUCUUCCCCCGUUGUUUACAUGUUGAAAAGGAAAAUCACAAUCACUUGUAAAUGUGCCAUGCUCUGGUGGUGUGGGCAGUCAAUUAUUGUUAGAAUCUUUACCAAAGAUCUGGUGGAAUUCUCGGGUGCCAA` — result for “RBNS enrichment (R)”: 0.425.
For `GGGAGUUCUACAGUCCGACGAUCUUACUAUGCUAUCAAUUCCAUAUAUGGAAAGGUGUUUUCCCUUUCAGAGCUCUUUAAAGCUCUGCAGAAGAUUUACAUGUGUUUAUAGAGCUAAGAGAAAUCAGGGCAUGUGGAAUUCUCGGGUGCCAA`, “RBNS enrichment (R)” read 0.937.
`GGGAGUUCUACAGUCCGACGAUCCUGAGGUGGUUGUGACCUGGAUCUUGAAGACUAAAAGACACAGAGUCUGCUGAGCUGCUCCUGUGCAUGGUGGCUGUCUCUUCAUCUAGGGCAGAAAUCUAUAGAUUCUUUGGAAUUCUCGGGUGCCAA`: “RBNS enrichment (R)” 3.84.
